Assay results pooled from the literature.
Each line is one published result; not all experiments were run side by side.
CSF1R: Macrophage colony-stimulating factor 1 receptor (CSF1R, Homo sapiens, UniProt P07333)
Sequence of UniProt P07333 (whole entry, unmodified, looked up): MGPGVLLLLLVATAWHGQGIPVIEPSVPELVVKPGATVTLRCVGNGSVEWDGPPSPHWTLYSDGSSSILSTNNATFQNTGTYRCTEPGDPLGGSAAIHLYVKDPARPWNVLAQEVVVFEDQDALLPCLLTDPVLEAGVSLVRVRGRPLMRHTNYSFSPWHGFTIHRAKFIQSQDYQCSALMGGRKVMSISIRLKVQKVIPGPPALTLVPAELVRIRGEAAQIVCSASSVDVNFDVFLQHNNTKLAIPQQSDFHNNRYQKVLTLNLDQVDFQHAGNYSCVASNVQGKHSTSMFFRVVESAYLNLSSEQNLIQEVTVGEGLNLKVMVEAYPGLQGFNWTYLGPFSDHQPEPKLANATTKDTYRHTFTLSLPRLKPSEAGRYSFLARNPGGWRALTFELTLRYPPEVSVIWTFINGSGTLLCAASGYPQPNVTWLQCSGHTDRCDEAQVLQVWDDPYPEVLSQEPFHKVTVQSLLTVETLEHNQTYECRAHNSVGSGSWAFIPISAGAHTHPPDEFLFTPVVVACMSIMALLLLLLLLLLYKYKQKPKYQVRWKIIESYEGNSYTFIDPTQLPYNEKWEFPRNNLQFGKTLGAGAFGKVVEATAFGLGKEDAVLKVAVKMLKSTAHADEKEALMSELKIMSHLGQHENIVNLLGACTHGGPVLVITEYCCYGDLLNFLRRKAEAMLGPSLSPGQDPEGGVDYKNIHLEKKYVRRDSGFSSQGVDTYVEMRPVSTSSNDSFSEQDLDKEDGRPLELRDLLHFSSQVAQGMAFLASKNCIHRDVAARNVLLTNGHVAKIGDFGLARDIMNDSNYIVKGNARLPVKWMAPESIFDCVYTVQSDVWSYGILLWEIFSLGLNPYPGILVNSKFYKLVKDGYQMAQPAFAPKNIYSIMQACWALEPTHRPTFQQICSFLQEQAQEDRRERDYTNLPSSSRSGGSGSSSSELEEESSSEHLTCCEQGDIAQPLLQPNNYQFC

The inhibition of CC(C)[C@H]1NC(=O)C[C@H]2/C=C/CCSSC[C@@H](NC1=O)C(=O)N[C@H](Cc1cccc3ccccc13)C(=O)NCC(=O)O2 is reported as -51.6% (CSF1R; enzyme activity, inhibitor; 10 µM).
With CCOC(=O)[C@@H]1Cc2c(cc([N+](=O)[O-])cc2[N+](=O)[O-])[C@H](O)[C@]12C(=O)Nc1ccc(Br)cc12 the remaining binding was 92% (CSF1R; binding, competition with immobilised ligand; 0.1 µM).
With O=C(O)c1ccccc1/C=N/Nc1nc(-c2ccccc2Cl)cs1 the inhibition was -5.81% (CSF1R; enzyme activity, inhibitor; 1 µM).
Nc1ccc(/C=C/C(=O)N2CCc3c(oc4c(-c5ccc(F)cc5)cc(-c5ccc(C(=O)N6CCC(F)(F)CC6)cn5)cc34)C2)cn1 has a remaining binding of 100% (CSF1R; binding, competition with immobilised ligand; 1 µM).
With O=C1NC(=O)c2c1c1cc(F)c[n+]3c1c1c2c2cc(O)ccc2[n]1[Ru-4]312([N]=C=S)[S+]3CC[S+]1CC[S+]2CC3 (centres unmarked) the remaining activity was 27% (CSF1R; enzyme activity; 100 nM, human enzyme, together with: 10 µM ATP; relative to: untreated).
With CCn1nc(Cl)c2c1-c1cnc(N)c(c1)O[C@H](C)c1cc(F)ccc1-c1nn(C)cc1C2 the selectivity ratio was 162 fold (CSF1R; kinase activity, inhibitor; relative to: IC50 CSF1R over IC50 ALK).
For CS(C)(=O)=Nc1ccc(-c2ccc(-c3nc4cc(O[C@@H]5CO[C@H]6[C@@H]5OC[C@H]6O)[nH]c4cc3F)cc2)cc1, the inhibition was 2% (CSF1R (Homo sapiens, UniProt P07333, Y969C); enzyme activity, inhibitor; 10 µM).
C[C@H](NCc1ccc(-c2ccc(C(F)(F)F)cc2)cc1)C(N)=O gave an inhibition of 1% (CSF1R; cell-free assay, competition with immobilised ligand; 1 µM).
